Results pooled from the literature.
Numbers after ± are the reported error.

Compound | assay | test system | setting | Cmax
CN1CC[C@]23c4c5ccc(O)c4O[C@H]2[C@@H](O[C@@H]2O[C@H](C(=O)O)[C@@H](O)[C@H](O)[C@H]2O)C=C[C@H]3[C@H]1C5 | LC-MS/MS | male Sprague-Dawley rat, whole blood | intraperitoneal, 10 mg/kg of heroin | 6.64 ± 1.54 ng/mL
C=CC[N+]1([C@H]2C[C@H]3[C@@H]4CC[C@H]5C[C@H](O)[C@@H](N6CCOCC6)C[C@]5(C)[C@H]4CC[C@]3(C)[C@H]2OC(C)=O)CCCC1 |  | Sprague Dawley rat, plasma | intravenous, dose not given, together with: sugammadex 5 mg/kg | 242 ng/mL
Cc1ccc(S(=O)(=O)Nc2c(N[C@H]3CC[C@H](NC(=O)Nc4ccc(F)c(Cl)c4)CC3)c(=O)c2=O)cc1 |  | rat, plasma | oral, 20 mg/kg | 30 nM
CCN1C[C@]2(COC)[C@H](O)C[C@H](OC)[C@@]34[C@@H]5C[C@@]6(O)[C@H](OC(=O)c7ccccc7)[C@@H]5[C@@](OC(C)=O)([C@@H]([C@H](OC)[C@H]23)[C@@H]14)[C@@H](O)[C@@H]6OC |  | Sprague-Dawley rat, plasma | oral, dose not given, in PCW extract | 589 ± 163 ng/mL
C#Cc1ccc2c(c1)C(c1ccccn1)=NCc1c(-c3cnco3)ncn1-2 |  | Sprague Dawley rat, brain | oral, 2 mg/kg, cassette dosing | 678 nM
COC(=O)[C@H]1[C@@H](OC(=O)c2ccccc2)C[C@@H]2CC[C@H]1N2C | LC-MS/MS | Sprague-Dawley rat, male, whole blood | intraperitoneal, 20 mg/kg | 704 ± 43.4 ng/mL
COC[C@@]12CC[C@H](OC)[C@]34C(C([C@H](OC)[C@H]13)[C@]1(OC(C)=O)[C@H]3[C@@H](OC(=O)c5ccccc5)[C@](O)(C[C@H]34)[C@@H](OC)[C@@H]1O)N(C)C2 |  | Sprague-Dawley rat, plasma | oral, dose not given, in PCW extract | 441 ± 97.2 ng/mL
O=C(O)CCC(CP(=O)(O)O)C(=O)O (stereo not shown) |  | Wistar rat, male, dorsal root ganglion | ip, 100 mg/kg | 30700 ng/g
CC1=C(O)C(=O)C=C2C1=CC=C1[C@@]2(C)CC[C@@]2(C)[C@@H]3C[C@](C)(C(=O)O)CC[C@]3(C)CC[C@]12C |  | rat Sprague-Dawley male pups PN5, plasma | intraperitoneal, 4 mg/kg single dose | ~3 ng/mL
CN1[C@H]2CC[C@@H]1[C@@H](C(=O)O)[C@@H](OC(=O)c1ccccc1)C2 | LC-MS/MS | Sprague-Dawley rat, whole blood | intraperitoneal, 20 mg/kg of cocaine | 2170 ± 101 ng/mL
CC(=O)c1c(C)c2cnc(Nc3ccc(C4CCN(CCS(C)(=O)=O)CC4)cn3)nc2n(C2CCCC2)c1=O |  | Sprague-Dawley rat, male | oral, 60 mg/kg, day 28, repeated dosing 4 weeks | 3090 ng/mL
COC[C@]12CN(C)[C@@H]3[C@@H]4[C@H](OC)[C@H]1[C@@]3([C@@H](OC)C[C@H]2O)[C@@H]1C[C@@]2(O)[C@H](OC(=O)c3ccccc3)[C@@H]1[C@]4(OC(C)=O)[C@@H](O)[C@@H]2OC |  | Sprague-Dawley rat, plasma | oral, dose not given, with NADES in PCW extract | 79.8 ± 21 ng/mL
CN1CC[C@]23c4c5ccc(O[C@@H]6O[C@H](C(=O)O)[C@@H](O)[C@H](O)[C@H]6O)c4O[C@H]2[C@@H](O)C=C[C@H]3[C@H]1C5 |  | Sprague-Dawley rat, whole blood | intraperitoneal, 10 mg/kg heroin, single heroin dose alone | 2110 ± 227 ng/mL

Excerpt of the above:
Compound | assay | test system | setting | Cmax
C=CC[N+]1([C@H]2C[C@H]3[C@@H]4CC[C@H]5C[C@H](O)[C@@H](N6CCOCC6)C[C@]5(C)[C@H]4CC[C@]3(C)[C@H]2OC(C)=O)CCCC1 |  | Sprague Dawley rat, plasma | intravenous, dose not given, together with: sugammadex 5 mg/kg | 242 ng/mL
CCN1C[C@]2(COC)[C@H](O)C[C@H](OC)[C@@]34[C@@H]5C[C@@]6(O)[C@H](OC(=O)c7ccccc7)[C@@H]5[C@@](OC(C)=O)([C@@H]([C@H](OC)[C@H]23)[C@@H]14)[C@@H](O)[C@@H]6OC |  | Sprague-Dawley rat, plasma | oral, dose not given, in PCW extract | 589 ± 163 ng/mL
